Measurements pooled from the literature.
Protocols differ between the studies behind these lines. Values joined by “and” are separate records of one study, mostly repeats; a detail may differ. ± gives the spread as reported.
Chain of UniProt P06239 (whole entry, looked up): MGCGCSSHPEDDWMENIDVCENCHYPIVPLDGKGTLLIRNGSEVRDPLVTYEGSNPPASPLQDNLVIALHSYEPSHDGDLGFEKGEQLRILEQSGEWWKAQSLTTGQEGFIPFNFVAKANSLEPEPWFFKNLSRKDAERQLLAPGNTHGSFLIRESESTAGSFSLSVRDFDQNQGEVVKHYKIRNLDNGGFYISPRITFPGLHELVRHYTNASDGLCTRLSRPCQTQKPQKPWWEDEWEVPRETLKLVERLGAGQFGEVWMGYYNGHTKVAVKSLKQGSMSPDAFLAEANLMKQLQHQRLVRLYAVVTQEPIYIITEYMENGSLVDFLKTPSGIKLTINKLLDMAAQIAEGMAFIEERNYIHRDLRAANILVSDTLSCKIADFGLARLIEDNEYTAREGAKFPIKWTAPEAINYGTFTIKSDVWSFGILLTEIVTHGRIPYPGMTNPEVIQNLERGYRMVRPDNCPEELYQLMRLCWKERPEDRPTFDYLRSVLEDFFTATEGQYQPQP
Chain of UniProt O75582 (whole entry, looked up): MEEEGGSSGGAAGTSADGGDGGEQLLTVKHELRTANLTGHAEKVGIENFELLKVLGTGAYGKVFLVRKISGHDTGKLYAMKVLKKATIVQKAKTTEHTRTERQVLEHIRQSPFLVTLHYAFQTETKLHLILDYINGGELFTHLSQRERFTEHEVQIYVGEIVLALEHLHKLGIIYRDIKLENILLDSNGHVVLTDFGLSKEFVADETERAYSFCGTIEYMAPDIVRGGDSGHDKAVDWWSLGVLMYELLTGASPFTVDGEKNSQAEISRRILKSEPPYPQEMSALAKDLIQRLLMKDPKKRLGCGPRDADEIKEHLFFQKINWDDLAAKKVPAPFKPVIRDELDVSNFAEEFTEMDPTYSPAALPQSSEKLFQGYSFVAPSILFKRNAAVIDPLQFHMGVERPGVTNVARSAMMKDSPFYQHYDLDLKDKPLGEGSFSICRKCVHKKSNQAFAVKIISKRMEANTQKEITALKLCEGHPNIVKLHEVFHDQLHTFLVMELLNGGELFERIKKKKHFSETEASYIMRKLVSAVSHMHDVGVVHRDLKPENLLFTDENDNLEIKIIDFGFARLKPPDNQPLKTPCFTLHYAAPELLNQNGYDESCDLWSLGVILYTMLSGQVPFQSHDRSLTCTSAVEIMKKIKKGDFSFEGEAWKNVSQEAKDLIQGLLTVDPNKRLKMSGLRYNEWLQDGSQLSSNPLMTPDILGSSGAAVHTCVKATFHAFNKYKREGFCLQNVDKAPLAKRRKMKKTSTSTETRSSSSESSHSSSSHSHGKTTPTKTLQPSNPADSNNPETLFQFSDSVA
Chain of UniProt O75676 (whole entry, looked up): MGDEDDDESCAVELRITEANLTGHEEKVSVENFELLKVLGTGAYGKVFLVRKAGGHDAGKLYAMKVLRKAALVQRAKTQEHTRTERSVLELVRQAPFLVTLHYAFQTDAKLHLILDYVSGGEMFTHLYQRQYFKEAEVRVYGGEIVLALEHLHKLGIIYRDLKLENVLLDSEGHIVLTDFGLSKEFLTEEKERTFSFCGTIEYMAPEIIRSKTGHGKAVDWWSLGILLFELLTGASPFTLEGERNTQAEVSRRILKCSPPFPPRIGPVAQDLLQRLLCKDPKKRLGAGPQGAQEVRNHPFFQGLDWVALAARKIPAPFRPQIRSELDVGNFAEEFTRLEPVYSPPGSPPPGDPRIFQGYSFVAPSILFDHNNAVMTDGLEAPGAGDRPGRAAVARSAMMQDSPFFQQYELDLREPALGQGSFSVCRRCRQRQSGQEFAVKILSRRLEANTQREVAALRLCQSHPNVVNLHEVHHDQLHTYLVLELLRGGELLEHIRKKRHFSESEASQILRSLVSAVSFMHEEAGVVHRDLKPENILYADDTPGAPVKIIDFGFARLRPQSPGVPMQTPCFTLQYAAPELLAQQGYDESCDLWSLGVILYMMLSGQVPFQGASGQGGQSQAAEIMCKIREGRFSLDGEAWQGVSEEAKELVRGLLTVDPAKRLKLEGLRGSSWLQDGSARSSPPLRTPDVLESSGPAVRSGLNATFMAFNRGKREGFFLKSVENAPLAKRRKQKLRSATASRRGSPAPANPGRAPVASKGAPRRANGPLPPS

SMILES	tested on	test	test system	conditions	how to read	quantity	value
C=CCN1C(=O)C(CC=C)(C(=O)OCC)Oc2cc(F)ccc21 (stereo not shown)	L02	cell growth or viability, CCK-8	–	50 µM, 72 h	–	inhibition	0.53%
Cc1cc(C(=O)Nc2nc3cccc(C)c3n2[C@H]2CCCCN(C(=O)/C=C/CN(C)C)C2)ccn1	Trypanosoma brucei brucei	–	CLK1 C215S mutant expressing	5 x EC50, 48 h	–	cell growth	10400% and 13300% and 10300%
CN(C)[C@H]1C[C@@]23CC[C@@]4(O2)C(=CC[C@]2(C)[C@@H](c5ccc6ccncc6c5)CC[C@H]24)C=C3[C@@H](O)[C@@H]1O	Ribosomal protein S6 kinase alpha-4, N-terminal kinase domain (RPS6KA4, Homo sapiens, UniProt O75676)	ATP probe labelling, inhibitor, KiNativ profiling	–	0.1 µM	–	inhibition	4%
COc1ccccc1-c1n[nH]c2nc(N[C@H]3CC[C@H](NS(=O)(=O)CC(C)C)CC3)ncc12	–	bead binding, competition bead pull-down, refers to: LINJ.35.0360	Leishmania donovani extract	10 µM	reference: vehicle	relative abundance	1.32
CC(C)CC(C(=O)N1CC2(CC1C#N)C(=O)Nc1ccccc12)N(C)C(=O)c1cc2c(F)cc(F)c(F)c2[nH]1 (stereo not shown)	Betacoronavirus 1	viral replication	HCT-8, OC43	0.125 µM	–	inhibition	89%
CC(C)[C@H]1NC(=O)C[C@H]2/C=C/CCSSC[C@@H](NC1=O)C(=O)N[C@H](Cc1cccc3ccccc13)C(=O)NCC(=O)O2	RPS6KA5 (Homo sapiens, UniProt O75582)	enzyme activity, inhibitor	–	10 µM	–	inhibition	0.6%
COc1ccccc1-c1n[nH]c2nc(NC3CCN(C(=O)Cc4ccc(F)cc4F)CC3)ncc12	–	bead binding, competition bead pull-down, refers to: LINJ.28.2430	Leishmania donovani extract	10 µM	reference: vehicle	relative abundance	1.18
CC[C@H](C)[C@H](NC(=O)[C@H](CO)NC(=O)[C@H](Cc1ccc(O)cc1)NC(=O)[C@H](Cc1ccc(O)cc1)NC(=O)[C@H](CC(N)=O)NC(=O)CNC(=O)[C@H](CO)NC(=O)[C@H](Cc1ccc(O)cc1)NC(=O)[C@H](CO)NC(=O)[C@H](CO)NC(=O)[C@H](CC(N)=O)NC(=O)COCCOCCNC(=O)CN1CCN(CC(=O)O)CCN(CC(=O)O)CCN(CC(=O)O)CC1)C(=O)N[C@@H](CC(C)C)C(N)=O [copper-64 labelled]	–	dynamic PET	tamoxifen-induced PDAC mouse model, metastases	12.5 min, CLDN4-expressing tumours	–	maximum metastasis uptake	19.1 %IA/cc
O=C1NC2(CC2)COc2ncc(F)cc2[C@H]2COCCN2c2ccn3ncc1c3n2	–	–	Sprague-Dawley rat, female, adrenals	oral, 20 mg/kg/day, 4 weeks, end of treatment	–	organ-to-brain weight ratio	4.02 ± 0.41%
Cc1cc(Oc2nc(N3CC[C@@H](c4ccncc4)C3)ncc2F)[nH]n1	Mycobacterium tuberculosis	OD	H37Rv PurF CRISPRi knockdown	0.01563 µM, with: anhydrotetracycline low	–	normalised growth	20% and 17% and 30%
CC1CCC2C(C)C(CCCOC(=O)C(Cc3ccc(N(CCCl)CCCl)cc3)NC(=O)OC(C)(C)C)OC3OC4(C)CCC1C32OO4 (stereo not shown)	7702 normal human cells	cell growth, CCK-8	–	48 h	–	IC50	36.3 µM
CN1CCN(S(=O)(=O)c2ccc(-c3ccc4ncnc(Nc5ccc(OCc6ccccc6)c(Cl)c5)c4c3)cc2)CC1	Plasmodium falciparum	parasite growth, SYBR Green fluorescence	C235 (TM91C235), drug-resistant	–	–	EC50	0.028 µM
CC(C)C[C@@H]1NC(=O)[C@@H](Cc2c[nH]c3ccccc23)NC(=O)[C@H](CCCNC(=N)N)NC(=O)[C@@H](CCC(=O)O)NC(=O)[C@H](CCC(N)=O)NC(=O)[C@@H](CCC(=O)O)NC(=O)[C@H](CCCNC(=N)N)NC(=O)[C@@H](Cc2c[nH]c3ccccc23)NC1=O	–	Luminex, refers to: IP-10 CXCL10	LDLr-/- mice, Western diet, liver	dose not given, 4 weeks	–	cytokine level	1200 ± 380 pg/g tissue
CC(C)(C)C(=O)OCOP(=O)(OCOC(=O)C(C)(C)C)C1CCCN(O)C1=O (stereo not shown)	RPMI-8226	–	–	–	–	log GI50	-6.51 log M
CS(C)(=O)=Nc1ccc(-c2ccc(-c3nc4cc(O[C@@H]5CO[C@H]6[C@@H]5OC[C@H]6O)[nH]c4cc3F)cc2)cc1	LCK (Homo sapiens, UniProt P06239)	enzyme activity, inhibitor	–	10 µM	–	inhibition	13%
COc1ccccc1-c1ccncc1C(=O)Nc1nnc(OCc2ccc(Cl)cc2)s1	RPE-1 TP53-/- BRCA1-/-	–	–	0.5 µM, average of 2 runs	reference: untreated	colony survival	46.2%

Repeated from above:
SMILES	tested on	test	test system	conditions	how to read	quantity	value
CC(C)CC(C(=O)N1CC2(CC1C#N)C(=O)Nc1ccccc12)N(C)C(=O)c1cc2c(F)cc(F)c(F)c2[nH]1 (stereo not shown)	Betacoronavirus 1	viral replication	HCT-8, OC43	0.125 µM	–	inhibition	89%
CC(C)[C@H]1NC(=O)C[C@H]2/C=C/CCSSC[C@@H](NC1=O)C(=O)N[C@H](Cc1cccc3ccccc13)C(=O)NCC(=O)O2	RPS6KA5 (Homo sapiens, UniProt O75582)	enzyme activity, inhibitor	–	10 µM	–	inhibition	0.6%
COc1ccccc1-c1n[nH]c2nc(NC3CCN(C(=O)Cc4ccc(F)cc4F)CC3)ncc12	–	bead binding, competition bead pull-down, refers to: LINJ.28.2430	Leishmania donovani extract	10 µM	reference: vehicle	relative abundance	1.18
